# Published values gathered from unrelated publications.
# Protocols differ between the studies behind these lines.
# PIK3CA C420R: Phosphatidylinositol 4,5-bisphosphate 3-kinase catalytic subunit alpha isoform (PIK3CA, Homo sapiens, UniProt P42336, C420R)
# PIK3CA E542K: Phosphatidylinositol 4,5-bisphosphate 3-kinase catalytic subunit alpha isoform (PIK3CA, Homo sapiens, UniProt P42336, E542K)
# PIK3CA Q546K: Phosphatidylinositol 4,5-bisphosphate 3-kinase catalytic subunit alpha isoform (PIK3CA, Homo sapiens, UniProt P42336, Q546K)
SMILES,target,assay,conditions,how to read,endpoint,value
COc1cc(Nc2nccc(-c3cnn4nc(OC)ccc34)n2)cc(C(F)(F)F)c1,PIK3CA C420R,binding,1 µM,,remaining binding,93%
CNC(=O)C1CCN(c2cc(C)c(F)cc2NC(=O)c2ccc(-c3cc(O)ccc3C)c(C)c2)CC1,"PIK3CA (Homo sapiens, UniProt P42336, M1043I)","binding, competition with immobilised ligand",1 µM,,remaining binding,100%
C=CC(=O)Nc1cccc(-c2cnc3[nH]cc(C(=O)NC(C)(C)C)c3n2)c1,"PIK3CA (Homo sapiens, UniProt P42336)","enzyme activity, inhibitor",0.1 µM,,inhibition,27%
COc1cc(Nc2nc(C)cc(-c3cnn4nc(OC)ccc34)n2)cc(C(F)(F)F)c1,PIK3CA E542K,inhibitor,1 µM,baseline: control,remaining activity,59%
Nc1ncc2c(n1)-c1c([nH]c3ccc(C4=CCOCC4)cc13)CCC2,PIK3CA E542K,"binding, competition with immobilised ligand",1 µM,,remaining binding,92%
C=CC(=O)N1Cc2nc(-c3cc(-c4cc(Cl)cnc4Cl)c(F)cc3F)n(-c3ccncn3)c2C1,"Phosphatidylinositol 4,5-bisphosphate 3-kinase catalytic subunit alpha isoform, with p55 gamma (PIK3CA, Homo sapiens, UniProt P42336)",kinome panel,1 µM,,inhibition,-10.1%
Cc1cnc2nc1Nc1cccc(c1)COC/C=C/COCc1cc(ccc1OCCN1CCOCC1)N2,PIK3CA E542K,binding,0.1 µM,,remaining binding,88%
CC(=O)c1cnc(N)nc1N1CC[C@H]1c1nn2ccc(Cl)c2c(=O)n1-c1ccccc1,PIK3CA Q546K,"binding, competition with immobilised ligand",10 µM,,remaining binding,73%
C=CC(=O)N1CCc2ccc(-n3c(=O)ccc4cnc5ccc(-c6cnn(C)c6)cc5c43)cc21,"PIK3CA (Homo sapiens, UniProt P42336, E545K)",KINOMEscan,1 µM,baseline: DMSO control,remaining binding,52%
COc1c(Cl)cccc1Nc1c(-c2ccncc2C#C[C@@]2(C)CCCN2C(=O)/C=C/CN(C)C)[nH]c2c1C(=O)NCC2,PIK3CA Q546K,"binding, competition with immobilised ligand",3 µM,,remaining binding,71%
Cc1nc2c(F)cc(-c3nc(Nc4ccc(CNC(=O)CCCCCCC(=O)NO)cc4)ncc3F)cc2n1C(C)C,"Phosphatidylinositol 4,5-bisphosphate 3-kinase catalytic subunit alpha isoform, with p85 (PIK3CA, Homo sapiens, UniProt P42336, E542K)","enzyme activity, inhibitor",1 µM,,inhibition,14%
CNC1C[S+]2CC[S+]3CC[S+](C1)[Ru-4]321([N]=C=S)[n]2c3ccc(OC)cc3c3c4c(c5cc(F)c[n+]1c5c32)C(=O)NC4=O (stereo not shown),PIK3CA C420R,KinomeScan,0.1 µM,baseline: untreated,remaining binding,89%
C=CC(=O)N1CCCC(n2c(=O)c3ncccc3n(Cc3ccc(Oc4ccccc4)cc3)c2=O)C1 (stereo not shown),PIK3CA Q546K,"cell-free assay, competition with immobilised ligand",1 µM,,remaining binding,67%

# A few entries again:
SMILES,target,assay,conditions,how to read,endpoint,value
C=CC(=O)Nc1cccc(-c2cnc3[nH]cc(C(=O)NC(C)(C)C)c3n2)c1,"PIK3CA (Homo sapiens, UniProt P42336)","enzyme activity, inhibitor",0.1 µM,,inhibition,27%
